Experimental data of several laboratories.
B1: HOOK3 (Homo sapiens, UniProt Q86VS8); Alexa Fluor 488 on HaloTag; chain MFSVESLERAELCESLLTWIQTFNVDAPCQTVEDLTNGVVMAQVLQKIDPAYFDENWLNRIKTEVGDNWRLKISNLKKILKGILDYNHEILGQQINDFTLPDVNLIGEHSDAAELGRMLQLILGCAVNCEQKQEYIQAIMMMEESVQHVVMTAIQELMSKESPVSAGNDAYVDLDRQLKKTTEELNEALSAKEEIAQRCHELDMQVAALQEEKSSLLAENQVLMERLNQSDSIEDPNSPAGRRHLQLQTQLEQLQEETFRLEAAKDDYRIRCEELEKEISELRQQNDELTTLADEAQSLKDEIDVLRHSSDKVSKLEGQVESYKKKLEDLGDLRRQVKLLEEKNTMYMQNTVSLEEELRKANAARSQLETYKRQVVELQNRLSEESKKADKLDFEYKRLKEKVDSLQKEKDRLRTERDSLKETIEELRCVQAQEGQLTTQGLMPLGSQESSDSLAAEIVTPEIREKLIRLQHENKMLKLNQEGSDNEKIALLQSLLDDANLRKNELETENRLVNQRLLEVQSQVEELQKSLQDQGSKAEDSVLLKKKLEEHLEKLHEANNELQKKRAIIEDLEPRFNNSSLKIEELQEALRKKEEEMKQMEERYKKYLEKAKSVIRTLDPKQNQGAAPEIQALKNQLQERDRLFHSLEKEYEKTKSQREMEEKYIVSAWYNMGMTLHKKAAEDRLASTGSGQSFLARQRQATSSRRSYPGHVQPATAR
B2: CyaY 1-106 (Escherichia coli, UniProt P27838); chain MNDSEFHRLADQLWLTIEERLDDWDGDSDIDCEINGGVLTITFENGSKIIINRQEPLHQVWLATKQGGYHFDLKGDEWICDRSGETFWDLLEQAATQQAGETVSFR
B3: RPS21 mature (Spinacia oleracea, UniProt P82024); sequence looked up; chain FRSAYNVQVLVDDNENEERLLNRFRREVMRAGVIQECKRRRYFENKQEEKKRKHREAAKRNSRRRRGPFRGPFPGKEEATKVDKKEDDGDNWDMPEGGAPF
B4: Lef1 114-397 (Mus musculus, UniProt P27782); sequence looked up; chain MMPNMNSDPYMSNGSLSPPIPRTSNKVPVVQPSHAVHPLTPLITYSDEHFSPGSHPSHIPSDVNSKQGMSRHPPAPEIPTFYPLSPGGVGQITPPIGWQGQPVYPITGGFRQPYPSSLSGDTSMSRFSHHMIPGPPGPHTTGIPHPAIVTPQVKQEHPHTDSDLMHVKPQHEQRKEQEPKRPHIKKPLNAFMLYMKEMRANVVAECTLKESAAINQILGRRWHALSREEQAKYYELARKERQLHMQLYPGWSARDNYGKKKKRKREKLQESTSGTGPRMTAAYI
B5: HNRNPH1 192-280 (Homo sapiens, UniProt P31943); chain RTHYDPPRKLMAMQRPGPYDRPGAGRGYNSIGRGAGFERMRRGAYGGGYGGYDDYNGYNDGYGFGSDRFGRDLNYCFSGMSDHRYGDGG
B6: rnj HA-tagged (Mycolicibacterium smegmatis, UniProt A0QVT2); chain MSAELAPPPPLAPGGLRVTALGGISEIGRNMTVFEHLGRLLIVDCGVLFPGHDEPGVDLILPDLRHIEDRLDEIEALVVTHAHEDHIGAIPFLLKLRPDIPVVGSKFTIALVREKCREHRLKPKFVEVAERQSSQHGVFECEYFAVNHSIPGCLAVAIHTGAGTVLHTGDIKLDQLPLDGRPTDLPGMSRLGDAGVDLFLCDSTNSEHPGVSPSESEVGPTLHRLIRGAEGRVIVACFASNVDRVQQIIDAAVALGRRVSFVGRSMVRNMGIARELGYLKVDDSDILDIAAAEMMPPDRVVLITTGTQGEPMAALSRMSRGEHRSITLTSGDLIILSSSLIPGNEEAVYGVIDSLSKIGARVVTNAQARVHVSGHAYAGELLFLYNGVRPRNVMPVHGTWRHLRANAALAASTGVPPENIVLAENGVSVDLVAGRASISGAVTVGKMFVDGLITGDVGDATLGERLILSSGFVSITVVVHRGTGRPAGPAHLISRGFSEDPKALEPVAQKVERELEALAADNVTDPTRIAQAVRRTVGKWVGETYRRQPMIVPTVIEI
B7: DUSP23 (Homo sapiens, UniProt Q9BVJ7); chain MGVQPPNFSWVLPGRLAGLALPRLPAHYQFLLDLGVRHLVSLTERGPPHSDSCPGLTLHRLRIPDFCPPAPDQIDRFVQIVDEANARGEAVGVHCALGFGRTGTMLACYLVKERGLAAGDAIAEIRRLRPGSIETYEQEKAVFQFYQRTK
B8: acrA (Escherichia coli, UniProt P0AE06); N-terminal lipid at C25; chain CDDKQAQQGGQQMPAVGVVTVKTEPLQITTELPGRTSAYRIAEVRPQVSGIILKRNFKEGSDIEAGVSLYQIDPATYQATYDSAKGDLAKAQAAANIAQLTVNRYQKLLGTQYISKQEYDQALADAQQANAAVTAAKAAVETARINLAYTKVTSPISGRIGKSNVTEGALVQNGQATALATVQQLDPIYVDVTQSSNDFLRLKQELANGTLKQENGKAKVSLITSDGIKFPQDGTLEFSDVTVDQTTGSITLRAIFPNPDHTLLPGMFVRARLEEGLNPNAILVPQQGVTRTPRGDATVLVVGADDKVETRPIVASQAIGDKWLVTEGLKAGDRVVISGLQKVRPGVQVKAQEVTADNNQQAASGAQPEQSKS
B9: protein 1-329 E183A (Methylobacterium extorquens, UniProt C5AP93); chain MSATLPDMDTLRERLLAGDRAALARAITLAESRRADHRAAVRDLIDAVLPQTGRAIRVGITGVPGVGKSTTIDALGSLLTAAGHKVAVLAVDPSSTRTGGSILGDKTRMARLAIDRNAFIRPSPSSGTLGGVAAKTRETMLLCEAAGFDVILVETVGVGQSETAVADLTDFFLVLMLPGAGDALQGIKKGILELADMIAVNKADDGDGERRASAAASEYRAALHILTPPSATWTPPVVTISGLHGKGLDSLWSRIEDHRSKLTATGEIAGKRREQDVKWMWALVHERLHQRLVGSAEVRQATAEAERAVAGGEHSPAAGADAIATLIGL
B10: Ffh/4.5S RNA R194A (Escherichia coli); chain MFDNLTDRLSRTLRNISGRGRLTEDNVKDTLREVRMALLEADVALPVVREFINRVKEKAVGHEVNKSLTPGQEFVKIVRNELVAAMGEENQTLNLAAQPPAVVLMAGLQGAGKTTSVGKLGKFLREKHKKKVLVVSADVYRPAAIKQLETLAEQVGVDFFPSDVGQKPVDIVNAALKEAKLKFYDVLLVDTAGALHVDEAMMDEIKQVHASINPVETLFVVDAMTGQDAANTAKAFNEALPLTGVVLTKVDGDARGGAALSIRHITGKPIKFLGVGEKTEALEPFHPDRIASRILGMGDVLSLIEDIESKVDRAQAEKLASKLKKGDGFDLNDFLEQLRQMKNMGGMASLMGKLPGMGQIPDNVKSQMDDKVLVRMEAIINSMTMKERAKPEIIKGSRKRRIAAGCGMQVQDVNRLLKQFDDMQRMMKKMKKGGMAKMMRSMKGMMPPGFPGR
B11: bfd 1-73 C43S (Pseudomonas aeruginosa, UniProt Q9HY80); chain MYVCLCQGVTDNQIRDAIYEGCCSYREVREATGVGTQCGKCASLAKQVVRETLNDLQSAQPVPAFGTTAFVAA

Under binding, `B1 (HOOK3)` is recorded as “binds” (KIF1C, TMR on SNAP tag (Homo sapiens, UniProt O43896); TIRF colocalisation; with: Mg-ATP 1 mM).
With `hsiC1 fragment (Pseudomonas aeruginosa)` the β-galactosidase activity was 4660 Miller units (hsiB1 (Pseudomonas aeruginosa); bacterial two-hybrid; 48 h, 30 °C; higher = stronger interaction).
For `B2 (CyaY 1-106)`, “molecule per partner” read 1 (IscS 1-404 (Escherichia coli, UniProt P0A6B7); ITC; pH 8.0, 25 °C, NaCl 150 mM).
For `TBK1 fragment K29A (Homo sapiens)`, “reduction of IFN-β reporter” read 40% (STING1 (Homo sapiens, UniProt Q86WV6); IFN-β luciferase reporter; TBK1 KO HEK293T; with: cGAMP; baseline: wild-type TBK1, higher = more reduction).
`B3 (RPS21 mature)`: binding “binds” (PSRP3 mature (Spinacia oleracea, UniProt P82412); cryo-EM structure; native chloroplast 70S ribosome).
`VPST peptide fragment (Homo sapiens)` has an IC50 of over 2500 µM (ITGA4/ITGB1 (Homo sapiens); competition of cell adhesion, competitor, cell adhesion assay; Jurkat).
`RAN (UniProt P62826)` has a Ran:GTP protected of 63% (XPO1 (Homo sapiens, UniProt O14980); RanGAP protection; 330 nM, with: NES peptide 200 nM; higher = more protection).
`HIP-4.18` gave an IC50 of 1.8 µM (HLA-DRA/HLA-DRB1*04:01 (Homo sapiens); competition with biotinylated peptide, competitor, competition binding assay).
With `B4 (Lef1 114-397)` the reporter activation was 33 fold (Dlx2 (Mus musculus, UniProt P40764); Msx2-5820 luciferase; CHO; higher = more activation).
For `Tet1 (Mus musculus)`, the relative binding was 1.16 fold (EPAS1 (Homo sapiens, UniProt Q99814); co-IP; Tet1 overexpressed, in cells; baseline: reference lane, higher = more pVHL bound).
`B5 (HNRNPH1 192-280)` — result for binding: “binds” (TAF15 2-208 (Homo sapiens, UniProt Q92804); trapping in hydrogel, hydrogel binding; pH 7.5, 4 °C, NaCl 200 mM).
`RPN2 (Saccharomyces cerevisiae, UniProt P32565)` — result for binding: “binds” (20S proteasome core particle immobilized (Saccharomyces cerevisiae, UniProt P21243); pull-down).
The ka2 of `ALDOA (Oryctolagus cuniculus, UniProt P00883)` is reported as 0.007 s⁻¹ (TRAP C-terminal cytoplasmic tail (Plasmodium falciparum); SPR; two-state model).
Under binding, `B6 (rnj HA-tagged)` is recorded as “binds” (rne D694R/D738R (Mycolicibacterium smegmatis, UniProt A0R152); co-IP).
For `Pcsk9 fragment (Mus musculus)`, the bound PCSK9 was 26.4 ng/mL (Ldlr (Mus musculus, UniProt P35951); ELISA; plasma; vaccine group).
With `RmS-3, glycosylated (Rhipicephalus microplus)` the protease inhibition was under 20% (F12 factor XIIa (Homo sapiens); chromogenic substrate hydrolysis, inhibitor; 1 µM).
For `Mos1 transposase R48Q/Q100R/T216A (Drosophila mauritiana)`, “relative cleavage activity” read 29% (MOS1 transposase T216A (Drosophila mauritiana); NTS first strand cleavage; 15 nM each; baseline: T216A transposase at 30 nM, higher = more cleavage).
With `N-formyl-Met-Leu-Phe, N-formyl` the pEC50 was under 6 pEC50 (FPR2 (Homo sapiens, UniProt P25090); inhibition of forskolin-stimulated cAMP, agonist; CHO-K1).
Under binding, `AVFLSREQANQVLQRRRR (consensus propeptide propeptide)` is recorded as “binds” (GGCX nanodisc-embedded (Homo sapiens, UniProt P38435); HDX-MS; peptide).
With `THBS1 (Homo sapiens, UniProt P07996)` the infection inhibition was over 90.7% (env gp160 (HIV-1); viral infection, inhibitor, p24 ELISA; SK23; baseline: untreated infection, higher = more inhibition).
With `HIP-4.1` the IC50 was 2.8 µM (HLA-DRA/HLA-DRB1*04:01 (Homo sapiens); competition with biotinylated peptide, competitor, competition binding assay).
`melittin` — result for “free energy of partitioning”: -7.97 kcal/mol (CD titration; POPC 50% POPG 50% vesicles; pH 7.0, 50 °C).
`B7 (DUSP23)` — result for binding: “binds” (GCM1 167-349, pS269/pS275 (Homo sapiens, UniProt Q9NP62); pull-down; 30 min, pH 7.5, 30 °C, with: PKA 0.5 U).
`B8 (acrA)` has a Kd of 0.67 µM (acrB C493S/C887S/S1043C (Escherichia coli, UniProt P31224); SPR; pH 7.5, 150 mM NaCl, global fit, Langmuir).
For `B9 (protein 1-329 E183A)`, the kcat was 0.005 s⁻¹ (mcmA (Methylobacterium extorquens, UniProt C5AV67); GTP hydrolysis; GAP activity, with: MCM 2-fold).
For `B10 (Ffh/4.5S RNA R194A)`, “relative GTP hydrolysis rate” read under 3 fold (ftsY (Escherichia coli, UniProt P10121); GTPase activity; baseline: wild type, higher = greater reduction).
`B11 (bfd 1-73 C43S)` — result for “iron release rate”: 0.019 min⁻¹ (bfrB 1-158 L68A (Pseudomonas aeruginosa, UniProt Q9HY79); Fe2+-bipyridine formation; with: NADPH 1 mM).
The Ki of `IWDYA (F5 residues 332-336 (Homo sapiens))` is reported as 69 µM (F10/F5 factor Xa with factor Va 29-737 (Homo sapiens); thrombin generation, inhibitor, prothrombinase inhibition assay; peptide; pH 7.4, apparent).
With `envC residues 20-end (Pseudomonas aeruginosa)` the Vmax was 121 nmol/mg/min (ftsE 1-223 (Pseudomonas aeruginosa, UniProt A0A069QBX1); ATPase activity; peptidiscs; 37 °C).

For quick reference, copied from above:
With `N-formyl-Met-Leu-Phe, N-formyl` the pEC50 was under 6 pEC50 (FPR2 (Homo sapiens, UniProt P25090); inhibition of forskolin-stimulated cAMP, agonist; CHO-K1).
Under binding, `AVFLSREQANQVLQRRRR (consensus propeptide propeptide)` is recorded as “binds” (GGCX nanodisc-embedded (Homo sapiens, UniProt P38435); HDX-MS; peptide).
